Published values pooled from the literature.
Compare with care: the assays were run in different laboratories. ± marks the error that the study gave.
GRPR: Gastrin-releasing peptide receptor (GRPR, Homo sapiens, UniProt P30550)
UniProt P30550, sequence (whole entry, looked up): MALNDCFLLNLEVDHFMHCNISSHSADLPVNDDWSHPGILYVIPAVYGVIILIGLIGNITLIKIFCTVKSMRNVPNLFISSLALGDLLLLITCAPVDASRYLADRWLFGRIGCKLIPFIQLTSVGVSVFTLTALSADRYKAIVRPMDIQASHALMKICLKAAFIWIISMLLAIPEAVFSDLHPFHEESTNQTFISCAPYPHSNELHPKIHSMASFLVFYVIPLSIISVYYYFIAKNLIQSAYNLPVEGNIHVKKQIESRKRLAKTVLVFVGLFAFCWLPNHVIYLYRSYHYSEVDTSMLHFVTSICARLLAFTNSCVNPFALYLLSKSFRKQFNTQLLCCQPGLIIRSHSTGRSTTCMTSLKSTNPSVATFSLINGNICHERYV
Genome polyprotein 3C protease: Genome polyprotein, 3C protease (rhinovirus B14, UniProt P03303)
UniProt P03303, sequence (whole entry, looked up): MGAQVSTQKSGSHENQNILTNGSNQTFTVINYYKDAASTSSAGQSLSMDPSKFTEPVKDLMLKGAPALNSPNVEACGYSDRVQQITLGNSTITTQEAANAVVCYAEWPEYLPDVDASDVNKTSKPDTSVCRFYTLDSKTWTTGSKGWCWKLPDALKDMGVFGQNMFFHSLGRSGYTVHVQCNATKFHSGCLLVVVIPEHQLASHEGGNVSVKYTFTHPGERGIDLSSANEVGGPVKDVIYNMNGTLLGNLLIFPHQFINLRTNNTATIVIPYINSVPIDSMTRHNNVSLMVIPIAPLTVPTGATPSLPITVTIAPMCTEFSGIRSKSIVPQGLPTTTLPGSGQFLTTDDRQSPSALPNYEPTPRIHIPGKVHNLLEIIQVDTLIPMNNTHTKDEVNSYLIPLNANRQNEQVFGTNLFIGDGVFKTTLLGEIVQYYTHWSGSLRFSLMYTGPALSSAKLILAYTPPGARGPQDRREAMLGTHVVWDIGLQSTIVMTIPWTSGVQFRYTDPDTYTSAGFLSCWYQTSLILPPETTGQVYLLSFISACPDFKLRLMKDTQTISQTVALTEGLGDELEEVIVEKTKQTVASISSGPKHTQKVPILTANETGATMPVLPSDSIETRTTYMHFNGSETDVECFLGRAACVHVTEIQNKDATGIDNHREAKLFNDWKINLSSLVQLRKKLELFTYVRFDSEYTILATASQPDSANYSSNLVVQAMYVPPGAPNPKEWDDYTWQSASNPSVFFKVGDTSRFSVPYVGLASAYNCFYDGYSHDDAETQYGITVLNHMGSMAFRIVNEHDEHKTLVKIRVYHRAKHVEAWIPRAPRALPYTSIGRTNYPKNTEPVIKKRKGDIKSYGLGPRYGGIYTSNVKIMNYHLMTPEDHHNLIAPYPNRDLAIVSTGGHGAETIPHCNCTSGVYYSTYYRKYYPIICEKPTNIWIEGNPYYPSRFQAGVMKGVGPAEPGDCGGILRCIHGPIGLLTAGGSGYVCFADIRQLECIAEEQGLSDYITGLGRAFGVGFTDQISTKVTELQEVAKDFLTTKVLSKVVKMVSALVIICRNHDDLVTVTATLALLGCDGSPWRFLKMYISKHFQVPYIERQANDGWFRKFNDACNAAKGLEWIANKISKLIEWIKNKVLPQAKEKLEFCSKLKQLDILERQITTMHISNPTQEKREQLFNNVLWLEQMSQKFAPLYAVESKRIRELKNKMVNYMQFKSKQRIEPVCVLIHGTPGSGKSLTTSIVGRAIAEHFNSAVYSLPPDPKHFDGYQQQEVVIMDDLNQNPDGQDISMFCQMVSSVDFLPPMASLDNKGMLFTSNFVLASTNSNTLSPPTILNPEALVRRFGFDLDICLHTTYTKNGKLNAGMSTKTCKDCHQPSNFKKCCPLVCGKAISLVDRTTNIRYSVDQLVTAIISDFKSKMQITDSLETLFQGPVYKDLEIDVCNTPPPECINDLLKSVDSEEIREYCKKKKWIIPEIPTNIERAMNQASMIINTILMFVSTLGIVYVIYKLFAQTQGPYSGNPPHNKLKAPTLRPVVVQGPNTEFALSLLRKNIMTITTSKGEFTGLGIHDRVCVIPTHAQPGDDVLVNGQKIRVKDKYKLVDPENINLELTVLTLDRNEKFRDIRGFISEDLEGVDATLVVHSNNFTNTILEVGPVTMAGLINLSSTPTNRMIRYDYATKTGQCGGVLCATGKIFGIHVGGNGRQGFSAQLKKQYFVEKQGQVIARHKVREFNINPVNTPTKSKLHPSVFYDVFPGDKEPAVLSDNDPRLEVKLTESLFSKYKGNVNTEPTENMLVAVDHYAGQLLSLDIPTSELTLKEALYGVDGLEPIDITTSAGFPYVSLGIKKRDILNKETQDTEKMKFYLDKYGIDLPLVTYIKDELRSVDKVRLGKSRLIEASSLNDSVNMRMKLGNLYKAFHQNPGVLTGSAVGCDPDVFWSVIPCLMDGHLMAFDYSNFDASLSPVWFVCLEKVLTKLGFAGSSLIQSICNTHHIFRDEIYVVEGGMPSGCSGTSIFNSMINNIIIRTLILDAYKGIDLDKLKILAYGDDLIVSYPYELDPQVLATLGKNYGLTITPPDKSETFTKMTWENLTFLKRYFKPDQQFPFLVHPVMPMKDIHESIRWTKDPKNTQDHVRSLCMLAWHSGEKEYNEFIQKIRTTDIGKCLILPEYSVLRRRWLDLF
UniProt O43148, sequence (whole entry, looked up): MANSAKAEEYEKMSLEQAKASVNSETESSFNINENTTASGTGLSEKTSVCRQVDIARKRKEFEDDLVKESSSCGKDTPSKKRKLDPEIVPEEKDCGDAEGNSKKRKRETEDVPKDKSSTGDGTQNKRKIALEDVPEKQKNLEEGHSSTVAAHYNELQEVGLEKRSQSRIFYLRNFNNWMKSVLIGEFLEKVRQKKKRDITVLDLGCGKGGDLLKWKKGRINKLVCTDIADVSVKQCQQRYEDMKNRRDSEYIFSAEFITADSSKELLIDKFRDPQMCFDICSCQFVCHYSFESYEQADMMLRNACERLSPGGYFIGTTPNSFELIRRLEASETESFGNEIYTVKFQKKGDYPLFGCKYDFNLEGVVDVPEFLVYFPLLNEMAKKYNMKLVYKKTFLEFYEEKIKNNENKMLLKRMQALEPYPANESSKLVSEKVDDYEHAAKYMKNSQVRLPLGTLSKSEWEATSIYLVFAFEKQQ
UniProt P13676, sequence (whole entry, looked up): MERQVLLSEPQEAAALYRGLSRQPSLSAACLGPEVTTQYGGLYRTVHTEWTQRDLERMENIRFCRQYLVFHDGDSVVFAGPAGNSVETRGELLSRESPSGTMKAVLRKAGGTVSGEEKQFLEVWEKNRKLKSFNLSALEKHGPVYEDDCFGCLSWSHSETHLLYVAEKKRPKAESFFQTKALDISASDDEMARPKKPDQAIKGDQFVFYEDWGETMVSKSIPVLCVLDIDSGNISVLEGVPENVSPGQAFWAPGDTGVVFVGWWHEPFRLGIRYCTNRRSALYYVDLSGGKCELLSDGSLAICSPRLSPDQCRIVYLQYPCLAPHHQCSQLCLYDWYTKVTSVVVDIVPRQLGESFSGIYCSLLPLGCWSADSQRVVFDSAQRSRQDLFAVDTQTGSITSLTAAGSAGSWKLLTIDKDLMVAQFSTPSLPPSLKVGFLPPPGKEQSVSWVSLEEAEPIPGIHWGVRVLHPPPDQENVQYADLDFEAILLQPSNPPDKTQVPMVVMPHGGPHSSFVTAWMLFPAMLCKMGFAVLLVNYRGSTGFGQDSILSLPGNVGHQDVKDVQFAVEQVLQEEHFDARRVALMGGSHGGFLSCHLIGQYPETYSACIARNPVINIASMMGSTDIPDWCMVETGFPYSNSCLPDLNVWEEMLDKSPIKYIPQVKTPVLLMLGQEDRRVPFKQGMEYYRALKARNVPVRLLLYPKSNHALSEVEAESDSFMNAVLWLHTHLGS
UniProt Q13393, sequence (whole entry, looked up): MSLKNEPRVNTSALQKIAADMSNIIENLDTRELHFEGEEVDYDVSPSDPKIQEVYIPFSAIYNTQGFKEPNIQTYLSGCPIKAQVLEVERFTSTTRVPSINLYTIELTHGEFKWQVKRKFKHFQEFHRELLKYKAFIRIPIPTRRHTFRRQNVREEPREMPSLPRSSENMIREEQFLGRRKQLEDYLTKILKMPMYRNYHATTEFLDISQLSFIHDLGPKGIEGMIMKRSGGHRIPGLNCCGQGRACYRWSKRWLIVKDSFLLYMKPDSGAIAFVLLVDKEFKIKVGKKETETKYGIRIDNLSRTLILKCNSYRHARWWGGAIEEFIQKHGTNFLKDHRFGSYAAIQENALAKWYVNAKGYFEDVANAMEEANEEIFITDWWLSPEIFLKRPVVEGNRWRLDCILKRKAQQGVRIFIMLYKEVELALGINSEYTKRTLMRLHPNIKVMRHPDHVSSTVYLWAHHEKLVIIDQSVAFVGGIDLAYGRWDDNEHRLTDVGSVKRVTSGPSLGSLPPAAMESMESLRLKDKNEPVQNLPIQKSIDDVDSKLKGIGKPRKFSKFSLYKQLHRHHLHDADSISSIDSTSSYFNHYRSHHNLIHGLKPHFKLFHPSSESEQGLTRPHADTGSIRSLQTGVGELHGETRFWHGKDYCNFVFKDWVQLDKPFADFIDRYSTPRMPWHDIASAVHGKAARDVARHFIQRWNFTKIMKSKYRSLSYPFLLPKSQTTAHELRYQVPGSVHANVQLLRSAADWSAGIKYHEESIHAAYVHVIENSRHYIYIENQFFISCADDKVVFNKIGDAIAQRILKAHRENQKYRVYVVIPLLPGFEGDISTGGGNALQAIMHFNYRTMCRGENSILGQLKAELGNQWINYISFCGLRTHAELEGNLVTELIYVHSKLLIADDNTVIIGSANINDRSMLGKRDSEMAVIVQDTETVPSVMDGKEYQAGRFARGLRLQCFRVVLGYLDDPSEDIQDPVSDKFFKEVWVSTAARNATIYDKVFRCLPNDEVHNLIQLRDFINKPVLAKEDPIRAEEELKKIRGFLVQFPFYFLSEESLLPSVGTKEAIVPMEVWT
UniProt P10415, sequence (whole entry, looked up): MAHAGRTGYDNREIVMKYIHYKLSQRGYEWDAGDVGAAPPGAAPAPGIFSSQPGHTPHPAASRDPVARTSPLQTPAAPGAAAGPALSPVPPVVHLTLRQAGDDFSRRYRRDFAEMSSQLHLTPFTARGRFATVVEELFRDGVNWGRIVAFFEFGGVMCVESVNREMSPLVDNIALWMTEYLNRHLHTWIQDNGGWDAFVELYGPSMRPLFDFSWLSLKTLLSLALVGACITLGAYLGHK

CCCC[C@H](NC(C)=O)C(=O)N1CCC[C@H]1C(=O)N[C@@H](CO)C(=O)N[C@@H](CO)C(=O)N[C@@H](C)C(=O)N[C@]1(C)CCCCCCC=CCCC[C@@](C)(C(=O)N[C@@H](CC(C)C)C(=O)N[C@@H](CCCCN)C(=O)N[C@@H](CCC(=O)O)C(=O)N[C@H](C(=O)N[C@@H](CCC(N)=O)C(N)=O)[C@@H](C)CC)NC(=O)[C@H](CCCCN)NC(=O)[C@H](CCCNC(=N)N)NC(=O)[C@H](CC(C)C)NC(=O)[C@H](CC(C)C)NC(=O)[C@H](CCC(N)=O)NC(=O)[C@H](CCCNC(=N)N)NC1=O — IC50 (Ubiquitin-like modifier-activating enzyme 1 (UBA1, Homo sapiens, UniProt P22314); enzyme activity, inhibitor): 96200 nM
O=C(NCCN1CCC2(CC1)C(=O)NCN2Cc1cccnc1)c1c[nH]c2ccccc12 — IC50 (Phospholipase D1 (Homo sapiens, UniProt Q13393); enzyme activity, inhibitor): > 20000 nM
C1CCc2c(c(N3CCOCC3)nc3sc4c(N5CCNCC5)nnnc4c23)C1 — IC50 (Beta-glucuronidase (uidA, Escherichia coli, UniProt P05804); enzyme activity, inhibitor): 108 nM
N=C(N)NCCC[C@H](NC(=O)[C@@H](N)CS)C(=O)N[C@@H](CC(N)=O)C(=O)N[C@@H](CC(N)=O)C(=O)O — IC50 (PPO3 (Agaricus bisporus, UniProt C7FF04); enzyme activity, inhibitor): 87200 nM
CC[C@H](C)[C@H](NC(=O)CN(CCOC)C(=O)CN(CCOC)C(=O)CN(CCOC)C(=O)CN(CCOC)C(=O)CN(CCOC)C(=O)CN(CCOC)C(=O)CN(CCOC)C(=O)CN(CCOC)C(=O)CN(CCOC)C(=O)CNCCOC)C(=O)N[C@@H](CO)C(=O)N[C@@H](CCC(N)=O)C(=O)N[C@H](C(=O)N[C@@H](CC(N)=O)C(=O)N[C@@H](CCC(=O)O)C(=O)N[C@@H](CCCCN)C(=O)N[C@H](C(=O)N[C@@H](CC(N)=O)C(=O)N[C@@H](CCC(N)=O)C(=O)N[C@@H](CO)C(=O)N[C@@H](CC(C)C)C(=O)N[C@@H](C)C(=O)N[C@@H](Cc1ccccc1)C(=O)N[C@H](C(=O)N[C@@H](CCCNC(=N)N)C(=O)N[C@@H](CCCCN)C(=O)N[C@@H](CO)C(=O)N[C@@H](CC(=O)O)C(=O)N[C@@H](CCC(=O)O)C(=O)O)[C@@H](C)CC)[C@@H](C)CC)C(C)C — IC50 (hRSV fusion protein 5-helix bundle; binding, fluorescence polarization; together with: Fl-C35 tracer 5 nM): > 200000 nM
CN(C)CCCOc1ccc(C2Sc3ccccc3NC3=C2C(=O)c2ccccc23)cc1 (racemic) — IC50 (MT-CYB, bc1 complex (Plasmodium falciparum, UniProt Q02768); enzyme activity, inhibitor; purified mitochondrial fractions): 1080 ± 84 nM
CCCNC(=O)[C@H](CC(C)C)NC(=O)[C@H](Cc1c[nH]cn1)NC(=O)CNC(=O)[C@@H](NC(=O)[C@H](C)NC(=O)[C@H](Cc1c[nH]c2ccccc12)NC(=O)[C@H](CCC(N)=O)NC(=O)[C@@H](Cc1ccccc1)NC(=O)CCCCCNC(=O)CN1CCN(CC(=O)O)CCN(CC(=O)O)CCN(CC(=O)O)CC1)C(C)C — IC50 (GRPR; binding): 1.36 ± 0.09 nM
CC(C)[C@H]1NC(=O)[C@H](CO)NC(=O)[C@H](CCC(N)=O)NC(=O)[C@H](Cc2ccccc2)NC(=O)[C@H](Cc2ccc3ccccc3c2)NC(=O)[C@H](CCCNC(=N)N)NC(=O)[C@H](CCCNC(=N)N)NC(=O)[C@H](CCCNC(=N)N)NC(=O)[C@H](CCCNC(=N)N)NC(=O)[C@H](Cc2c[nH]cn2)NC(=O)[C@H](Cc2ccc(C(F)(F)P(=O)(O)O)cc2)NC(=O)[C@@H]2CCCN2C1=O — IC50 (Tyrosine-protein phosphatase non-receptor type 1 (PTPN1, Homo sapiens, UniProt P18031); enzyme activity, inhibitor, absorbance): 31 nM
CN=c1nc(-c2ccccc2)n(-c2ccccc2)s1 — IC50 (mRNA cap guanine-N(7) methyltransferase, with RAM (RNMT, Homo sapiens, UniProt O43148); N7-methyltransferase activity, inhibitor, Py-FLINT; RNMT-RAM complex, together with: SAM 20 µM): 16000 ± 3300 nM
Cc1cc2c(C(=O)Cc3ccccc3)c(O)c(O)cc2c(O)c1-c1c(C)cc2c(C(=O)Cc3ccccc3)c(O)c(O)cc2c1O — IC50 (Apoptosis regulator Bcl-2 (BCL2, Homo sapiens, UniProt P10415); ligand displacement, FP): 360 nM
C[C@]1(COC(=O)c2ccc(O)c(O)c2)[C@H](C(=O)O)N2C(=O)/C(=C/c3ccccn3)[C@H]2S1(=O)=O — IC50 (Beta-lactamase OXA-48 (OXA-48, Klebsiella pneumoniae, UniProt Q6XEC0); inhibitor; together with: nitrocefin): 13 ± 2 nM
O=C(/C=C/c1ccc(O)cc1)c1ccc(N2CCNCC2)cc1 — IC50 (Beta-secretase 1 (BACE1, Homo sapiens, UniProt P56817); enzyme activity, inhibitor, fluorescence; with preincubation): 9860 nM
Cc1cc(S(=O)(=O)Nc2ncccn2)c(F)cc1N(C)C1CCN([C@H](C)c2ccccc2)CC1 — IC50 (Sodium channel protein type 3 subunit alpha (SCN3A, Homo sapiens, UniProt Q9NY46); sodium current, inhibitor, automated patch clamp; inactivated state protocol): 167000 nM
CC(C)C(=O)Nc1ccccc1-c1nn[nH]n1 — IC50 (Metallo-beta-lactamase VIM-2 (VIM-2, Escherichia coli, UniProt Q5U7L7); enzyme activity, inhibitor, fluorescence; with preincubation): > 100000 nM
Cc1ccc(C(C)C)cc1.[Cl][Ru]([Cl])[P](CP(c1ccccc1)c1ccccc1)(c1ccccc1)c1ccccc1 — IC50 (Cathepsin B (CTSB, Homo sapiens, UniProt P07858); enzyme activity, inhibitor, fluorescence): 143000 nM
CSCC[C@H](NC(=O)[C@H](C)NC(=O)CNC(=O)[C@H](Cc1ccc(O)cc1)NC(=O)[C@H](Cc1c[nH]c2ccccc12)NC(=O)[C@H](Cc1ccccc1)NC(=O)[C@H](CO)NC(=O)CNC(=O)CNC(=O)[C@H](CC(=O)O)NC(=O)[C@H](CCC(=O)O)NC(=O)[C@H](CCC(N)=O)NC(=O)[C@@H]1CCCN1C(=O)[C@H](CCCNC(=N)N)NC(=O)[C@H](CCCNC(=N)N)NC(=O)[C@H](CCCNC(=N)N)NC(=O)[C@H](CCC(N)=O)NC(=O)[C@H](CCCNC(=N)N)NC(=O)[C@H](CCCNC(=N)N)NC(=O)[C@H](CCCCN)NC(=O)[C@H](CCCCN)NC(=O)[C@H](CCCNC(=N)N)NC(=O)CN)C(=O)N[C@@H](CCCCN)C(=O)N[C@@H](C)C(=O)N[C@@H](CC(C)C)C(=O)N[C@@H](Cc1ccc(O)cc1)C(=O)NCC(N)=O — IC50 (Calcium and integrin-binding protein 1 (CIB1, Homo sapiens, UniProt Q99828); peptide binding, inhibitor, TR-FRET competition): 192 nM
C/C(=C\C(=O)N[C@@H](CC(C)C)C(=O)N1C[C@@H](O)C[C@H]1C(=O)N[C@H](C)CCC(N)=O)c1ccc(OP(=O)(O)O)cc1 — IC50 (Signal transducer and activator of transcription 3 (STAT3, Homo sapiens, UniProt P40763); phosphopeptide binding, inhibitor, fluorescence polarization): 220 ± 27 nM
O=C(Nc1ccccc1)c1ccccc1O — IC50 (Histone deacetylase 2 (HDAC2, Homo sapiens, UniProt Q92769); enzyme activity, inhibitor, fluorescence): > 10000 nM
CC(C)C[C@H](NC(=O)[C@H](CC(C)C)NC(=O)[C@H](Cc1c[nH]cn1)NC(=O)CNC(=O)[C@@H](NC(=O)[C@H](C)NC(=O)[C@H](Cc1c[nH]c2ccccc12)NC(=O)[C@H](CCC(N)=O)NC(=O)[C@H](CC(N)=O)NC(=O)CNC(=O)[C@H](CC(C)C)NC(=O)[C@H](CCCNC(=N)N)NC(=O)[C@H](CCC(N)=O)NC(=O)[C@@H]1CCC(=O)N1)C(C)C)C(N)=O — IC50 (GRPR; ligand displacement in cells, radioligand): 1 nM
C1CCN(c2nnnc3c2sc2nc(N4CCOCC4)c4c(c23)CCCC4)CC1 — IC50 (Beta-glucuronidase (Streptococcus agalactiae serotype V, UniProt Q8E0N2); Streptococcus agalactiae): > 100000 nM
CC[C@H](C)[C@@H]1NC(=O)[C@H]([C@@H](C)O)NC(=O)CNC(=O)[C@H](CCCNC(=N)N)NC(=O)[C@H](CC(C)C)NC(=O)[C@@H]2CSSC[C@H](NC1=O)C(=O)N[C@H](C(=O)N[C@@H](CO)C(=O)NCC(N)=O)CSSC[C@H](NC(=O)[C@H](C)N)C(=O)N[C@@H](C)C(=O)N[C@@H](Cc1c[nH]c3ccccc13)C(=O)N2 — IC50 (Chymotrypsinogen A, activated (alpha-chymotrypsin) (Bos taurus, UniProt P00766); enzyme activity, inhibitor; 1 h, pH 7.4, 25 °C, together with: N-succinyl-Ala-Ala-Pro-Phe p-nitroanilide): 0.7 nM
Nc1cc(Oc2ccc(-c3ccccc3)cc2)nn1S(=O)(=O)c1ccc(Oc2ccccc2)cc1 — IC50 (Genome polyprotein, NS2B-NS3 protease (dengue virus type 2, UniProt P29990); enzyme activity, inhibitor; 30 min preincubation, together with: 20 µM Bz-nKRR-AMC): 2900 ± 500 nM
CP(=O)(O)CNCc1ccccc1 — IC50 (Urease subunit alpha (Sporosarcina pasteurii, UniProt P41020); enzyme activity, inhibitor, indophenol colorimetric; 20 min, pH 7.0, 37 °C, together with: 50 mM urea): 256000 ± 12800 nM
COc1cccc2[nH]c(C(=O)N[C@@H](CC(C)C)C(=O)N[C@@H](C[C@@H]3CCNC3=O)C(=O)CO)cc12 — IC50 (Genome polyprotein 3C protease; enzyme activity, inhibitor, SAMDI-MS; human rhinovirus; 30 min preincubation, together with: substrate 10 µM): 2790 nM
Cc1cc(/C=C/c2ccc3cc(N(C)C)ccc3[n+]2C)c(C)n1-c1ccccc1 — IC50 (mRNA cap guanine-N(7) methyltransferase (RNMT, Homo sapiens, UniProt O43148); enzyme activity, inhibitor): 5100 ± 2280 nM
CC(=O)N[C@@H](CC(C)C)C(=O)N[C@@H](CCC(=O)O)C(=O)N[C@@H](CO)C(=O)N[C@@H](CC(=O)O)C(=O)CCl — IC50 (Caspase-7 (CASP7, Homo sapiens, UniProt P55210); enzyme activity, inhibitor, fluorescence): 72000 nM
Cc1cc(C(=O)COn2nnc3ccc(S(C)(=O)=O)cc32)c(C)n1C — IC50 (Genome polyprotein 3C protease; 3C protease activity, SAMDI-MS; human rhinovirus): > 100000 nM
CC(C)[C@H](NC(=O)c1ccc(CCc2nc3c(c(=O)[nH]2)CCC3)cc1)C(=O)NC1CNC1 — IC50 (Matrix metalloproteinase-9 (MMP9, Homo sapiens, UniProt P14780); enzyme activity, inhibitor): > 5000 nM
CC(C)CC(O)(CC(C)C)c1cn(C(=O)N2CCCC2)nn1 — IC50 (Acylamino-acid-releasing enzyme (Apeh, Rattus norvegicus, UniProt P13676); inhibitor, competitive ABPP; rat B103 cell proteome; 30 min): 7 nM
Nc1ncnc2c1ncn2[C@@H]1O[C@H](CSCCNC(=O)NCCc2ccccc2)[C@@H](O)[C@H]1O — IC50 (Protein arginine N-methyltransferase 8 (PRMT8, Homo sapiens, UniProt Q9NR22); enzyme activity, inhibitor, radiometric): > 50000 nM
O=C(NCCCCCCCn1ccc2ccccc21)Oc1ccccc1 — IC50 (Fatty-acid amide hydrolase 1 (Faah, Rattus norvegicus, UniProt P97612); rat brain homogenate; 60 min, 37 °C): 51 nM
